# Assay results collected from several papers.
# Lines come from different studies, so protocols differ. Several values in a cell are separate wells, animals, samples, runs or records.
# Target: Misshapen-like kinase 1 (MINK1, Homo sapiens, UniProt Q8N4C8)
Compound,assay,setting,how to read,measurement,result
CCN1CCN(Cc2ccc(C(=O)Nc3ccc(C)c(NCc4cnc5[nH]ccc5c4OC)c3)cc2C(F)(F)F)CC1,"binding, competition with immobilised ligand",1 µM,,remaining binding,10%
NC(=O)C[C@H]1CCc2sc3ncnc(O[C@H]4CC[C@H](N5CCOCC5)CC4)c3c21,"enzyme activity, inhibitor",10 µM,,inhibition,15%
COc1c(OCCCN2CCOCC2)ccc2c1N=C(NC(=O)c1cnc(N)nc1)N1CCN=C21,"kinase activity, inhibitor",1 µM,relative to: untreated control,remaining activity,126%
CC(C)=CC1OC(C)(C)C2C=C3C(=O)C(Cl)=CC(O)C3C3C(O)C4OC4C(=O)C132 (centres unmarked),"cell-free assay, competition with immobilised ligand",10 µM,,remaining binding,60%
CNC1C[S+]2CC[S+]3CC[S+](C1)[Ru-4]321([N]=C=S)[n]2c3ccc(OC)cc3c3c4c(c5cc(F)c[n+]1c5c32)C(=O)NC4=O (centres unmarked),KinomeScan,0.1 µM,relative to: untreated,remaining binding,79%
C=CC(=O)N1CCCC(n2c(=O)c3ncccc3n(Cc3ccc(Oc4ccccc4)cc3)c2=O)C1 (centres unmarked),"cell-free assay, competition with immobilised ligand",1 µM,,remaining binding,75%
COc1cc(Nc2nc(C)cc(-c3cnn4nc(OC)ccc34)n2)cc(C(F)(F)F)c1,KINOMEscan,"1 µM, MINK",relative to: DMSO,remaining binding,79%
CN1CCN(Cc2ccc(-c3ccc(CO[C@H]4CCC[C@@H]4NC(=O)c4cc(-c5cnn(C)c5)cnc4N)cc3)cc2)CC1,"enzyme activity, inhibitor",0.1 µM,,inhibition,-7%
CN1CC[C@@H](COc2cnc(C#N)cc2-c2ccn3nc(NC(=O)C4CC4)cc3c2)C1,"enzyme activity, inhibitor",1 µM,,inhibition,13%
C=CC(=O)Nc1cccc(-c2cnc3[nH]cc(C(=O)NC(C)(C)C)c3n2)c1,kinase activity,0.1 µM,,inhibition,23% and 35%
COc1c(Cl)cccc1Nc1c(-c2ccncc2C#C[C@@]2(C)CCCN2C(=O)/C=C/CN(C)C)[nH]c2c1C(=O)NCC2,"binding, competition with immobilised ligand",3 µM,,remaining binding,12%
Nc1ncc2c(n1)-c1c([nH]c3ccc(C4=CCOCC4)cc13)CCC2,"binding, competition with immobilised ligand",1 µM,,remaining binding,81%
Cc1cnc2nc1Nc1cccc(c1)COC/C=C/COCc1cc(ccc1OCCN1CCOCC1)N2,"binding, competition with immobilised ligand",0.1 µM,,remaining binding,84%
Cc1cccc(O[C@H]2CCC[C@@H](C(C)CNCc3ccncc3)C2)c1 (relative stereo),"enzyme activity, inhibitor",1 µM,,inhibition,-9%
